Assay results collected from several papers.
Numbered parts are unrelated; each lists some results of a single study. Several values in a cell are separate wells, animals, samples, runs or records.
Chain of UniProt P00519 (whole entry, unmodified, looked up): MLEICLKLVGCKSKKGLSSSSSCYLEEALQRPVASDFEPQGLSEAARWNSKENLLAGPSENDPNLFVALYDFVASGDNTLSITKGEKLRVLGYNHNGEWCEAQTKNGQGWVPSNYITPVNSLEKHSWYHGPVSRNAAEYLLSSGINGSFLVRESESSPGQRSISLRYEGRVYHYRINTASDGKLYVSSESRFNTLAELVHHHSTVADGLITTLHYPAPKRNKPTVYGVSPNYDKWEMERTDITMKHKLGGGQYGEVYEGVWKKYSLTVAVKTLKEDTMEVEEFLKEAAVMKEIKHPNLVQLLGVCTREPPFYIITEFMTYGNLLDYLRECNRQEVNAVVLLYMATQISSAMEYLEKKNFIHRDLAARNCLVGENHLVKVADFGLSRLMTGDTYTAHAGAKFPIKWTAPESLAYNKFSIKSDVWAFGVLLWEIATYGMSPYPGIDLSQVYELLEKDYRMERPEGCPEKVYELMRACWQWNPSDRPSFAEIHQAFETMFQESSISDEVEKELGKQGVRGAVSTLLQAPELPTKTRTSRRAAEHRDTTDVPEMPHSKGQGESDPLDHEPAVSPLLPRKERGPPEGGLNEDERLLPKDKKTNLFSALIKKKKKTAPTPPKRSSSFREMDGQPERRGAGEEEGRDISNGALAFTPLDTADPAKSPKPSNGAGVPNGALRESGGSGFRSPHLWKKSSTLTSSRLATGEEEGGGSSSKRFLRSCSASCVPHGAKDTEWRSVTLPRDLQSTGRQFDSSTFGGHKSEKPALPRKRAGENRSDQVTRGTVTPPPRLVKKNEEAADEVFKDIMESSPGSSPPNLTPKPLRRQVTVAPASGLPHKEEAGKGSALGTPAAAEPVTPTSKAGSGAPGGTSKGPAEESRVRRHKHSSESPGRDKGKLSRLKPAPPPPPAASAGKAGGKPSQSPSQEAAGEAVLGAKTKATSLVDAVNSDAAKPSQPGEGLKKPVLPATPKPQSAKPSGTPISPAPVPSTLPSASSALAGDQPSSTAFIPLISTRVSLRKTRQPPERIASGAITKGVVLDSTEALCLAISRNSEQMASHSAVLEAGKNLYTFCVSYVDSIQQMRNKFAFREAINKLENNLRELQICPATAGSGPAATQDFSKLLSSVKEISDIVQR
Chain of UniProt Q8TBX8 (whole entry, looked up): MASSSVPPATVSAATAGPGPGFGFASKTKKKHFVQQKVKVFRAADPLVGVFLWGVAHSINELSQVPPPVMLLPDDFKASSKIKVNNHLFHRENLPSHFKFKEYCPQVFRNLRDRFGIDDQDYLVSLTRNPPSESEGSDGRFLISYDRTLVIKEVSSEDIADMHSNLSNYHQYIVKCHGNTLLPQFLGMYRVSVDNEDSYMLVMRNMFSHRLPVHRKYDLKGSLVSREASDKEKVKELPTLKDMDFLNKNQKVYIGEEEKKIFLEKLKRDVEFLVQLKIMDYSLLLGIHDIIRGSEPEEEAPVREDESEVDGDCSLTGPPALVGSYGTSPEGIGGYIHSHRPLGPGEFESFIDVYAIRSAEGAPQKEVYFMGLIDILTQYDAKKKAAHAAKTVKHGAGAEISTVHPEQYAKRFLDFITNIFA
Chain of UniProt P28482 (whole entry, looked up): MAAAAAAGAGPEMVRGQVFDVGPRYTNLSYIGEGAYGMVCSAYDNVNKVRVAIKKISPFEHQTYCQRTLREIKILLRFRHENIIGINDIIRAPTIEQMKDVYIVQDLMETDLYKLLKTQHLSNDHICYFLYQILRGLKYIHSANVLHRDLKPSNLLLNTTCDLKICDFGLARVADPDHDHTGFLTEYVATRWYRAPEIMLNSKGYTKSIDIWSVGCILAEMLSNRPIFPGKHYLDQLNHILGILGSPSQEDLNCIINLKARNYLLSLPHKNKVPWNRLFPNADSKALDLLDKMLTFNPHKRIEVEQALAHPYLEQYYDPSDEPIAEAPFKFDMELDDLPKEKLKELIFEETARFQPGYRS
Chain of UniProt O14920 (whole entry, looked up): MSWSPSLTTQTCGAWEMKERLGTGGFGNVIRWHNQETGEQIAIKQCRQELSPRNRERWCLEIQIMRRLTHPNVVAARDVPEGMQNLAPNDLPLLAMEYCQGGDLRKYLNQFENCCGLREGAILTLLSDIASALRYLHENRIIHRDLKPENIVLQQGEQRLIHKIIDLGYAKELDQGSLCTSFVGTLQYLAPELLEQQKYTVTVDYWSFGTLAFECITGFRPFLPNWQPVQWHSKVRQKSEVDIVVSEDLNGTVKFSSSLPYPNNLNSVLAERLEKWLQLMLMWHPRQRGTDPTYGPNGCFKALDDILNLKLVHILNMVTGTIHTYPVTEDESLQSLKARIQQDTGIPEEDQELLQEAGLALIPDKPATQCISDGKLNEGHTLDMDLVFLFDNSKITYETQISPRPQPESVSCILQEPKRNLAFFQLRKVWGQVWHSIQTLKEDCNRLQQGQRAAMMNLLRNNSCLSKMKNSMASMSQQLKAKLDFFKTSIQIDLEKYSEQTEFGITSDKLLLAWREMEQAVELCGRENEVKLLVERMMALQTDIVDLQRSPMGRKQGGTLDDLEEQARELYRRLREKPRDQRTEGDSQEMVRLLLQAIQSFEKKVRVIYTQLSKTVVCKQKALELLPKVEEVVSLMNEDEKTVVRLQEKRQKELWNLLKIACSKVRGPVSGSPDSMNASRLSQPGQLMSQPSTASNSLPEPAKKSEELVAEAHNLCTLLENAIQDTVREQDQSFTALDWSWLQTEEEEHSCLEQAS
Chain of UniProt O00444 (whole entry, looked up): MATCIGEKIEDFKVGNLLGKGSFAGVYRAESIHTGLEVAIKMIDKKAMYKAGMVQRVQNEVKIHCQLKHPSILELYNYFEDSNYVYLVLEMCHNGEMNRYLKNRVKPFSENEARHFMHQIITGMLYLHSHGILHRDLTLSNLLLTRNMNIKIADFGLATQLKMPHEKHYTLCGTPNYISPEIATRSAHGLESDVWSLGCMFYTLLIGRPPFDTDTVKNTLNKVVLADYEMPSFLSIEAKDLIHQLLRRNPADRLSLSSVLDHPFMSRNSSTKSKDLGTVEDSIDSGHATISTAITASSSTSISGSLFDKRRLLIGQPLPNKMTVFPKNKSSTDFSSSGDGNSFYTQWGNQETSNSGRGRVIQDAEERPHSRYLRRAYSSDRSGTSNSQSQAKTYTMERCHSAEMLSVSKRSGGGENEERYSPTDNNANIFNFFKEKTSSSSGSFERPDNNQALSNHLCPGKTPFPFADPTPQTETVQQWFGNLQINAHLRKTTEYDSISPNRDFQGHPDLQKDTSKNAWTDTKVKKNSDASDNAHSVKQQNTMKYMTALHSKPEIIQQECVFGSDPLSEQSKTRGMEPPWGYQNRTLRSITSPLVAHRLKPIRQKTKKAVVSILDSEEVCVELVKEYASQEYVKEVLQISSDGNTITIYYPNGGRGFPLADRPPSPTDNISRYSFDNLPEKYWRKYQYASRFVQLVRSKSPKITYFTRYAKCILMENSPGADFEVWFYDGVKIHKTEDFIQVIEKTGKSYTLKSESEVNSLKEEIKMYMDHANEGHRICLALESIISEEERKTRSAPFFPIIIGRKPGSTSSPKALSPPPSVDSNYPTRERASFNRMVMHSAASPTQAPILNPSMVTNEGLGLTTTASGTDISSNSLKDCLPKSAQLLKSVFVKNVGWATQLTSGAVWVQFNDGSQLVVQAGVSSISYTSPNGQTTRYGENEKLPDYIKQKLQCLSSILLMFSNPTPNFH
Chain of UniProt P20794 (whole entry, looked up): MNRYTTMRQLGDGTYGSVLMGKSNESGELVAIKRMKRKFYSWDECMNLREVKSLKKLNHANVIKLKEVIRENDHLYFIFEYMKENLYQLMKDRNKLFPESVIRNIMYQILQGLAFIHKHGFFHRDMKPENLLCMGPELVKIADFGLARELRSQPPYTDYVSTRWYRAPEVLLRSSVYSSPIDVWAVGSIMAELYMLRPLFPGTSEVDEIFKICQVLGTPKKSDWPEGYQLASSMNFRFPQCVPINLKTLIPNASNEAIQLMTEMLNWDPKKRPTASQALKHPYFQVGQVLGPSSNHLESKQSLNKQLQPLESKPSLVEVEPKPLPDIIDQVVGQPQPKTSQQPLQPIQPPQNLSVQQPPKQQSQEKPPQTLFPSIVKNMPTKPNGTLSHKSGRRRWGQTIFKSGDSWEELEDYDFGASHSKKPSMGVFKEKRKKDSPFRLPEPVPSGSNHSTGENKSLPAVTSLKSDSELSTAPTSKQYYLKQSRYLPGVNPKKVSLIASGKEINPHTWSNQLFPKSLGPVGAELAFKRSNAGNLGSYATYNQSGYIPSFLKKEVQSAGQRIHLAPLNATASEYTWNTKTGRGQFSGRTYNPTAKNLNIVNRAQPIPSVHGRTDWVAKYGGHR
Chain of UniProt Q9UK32 (whole entry, looked up): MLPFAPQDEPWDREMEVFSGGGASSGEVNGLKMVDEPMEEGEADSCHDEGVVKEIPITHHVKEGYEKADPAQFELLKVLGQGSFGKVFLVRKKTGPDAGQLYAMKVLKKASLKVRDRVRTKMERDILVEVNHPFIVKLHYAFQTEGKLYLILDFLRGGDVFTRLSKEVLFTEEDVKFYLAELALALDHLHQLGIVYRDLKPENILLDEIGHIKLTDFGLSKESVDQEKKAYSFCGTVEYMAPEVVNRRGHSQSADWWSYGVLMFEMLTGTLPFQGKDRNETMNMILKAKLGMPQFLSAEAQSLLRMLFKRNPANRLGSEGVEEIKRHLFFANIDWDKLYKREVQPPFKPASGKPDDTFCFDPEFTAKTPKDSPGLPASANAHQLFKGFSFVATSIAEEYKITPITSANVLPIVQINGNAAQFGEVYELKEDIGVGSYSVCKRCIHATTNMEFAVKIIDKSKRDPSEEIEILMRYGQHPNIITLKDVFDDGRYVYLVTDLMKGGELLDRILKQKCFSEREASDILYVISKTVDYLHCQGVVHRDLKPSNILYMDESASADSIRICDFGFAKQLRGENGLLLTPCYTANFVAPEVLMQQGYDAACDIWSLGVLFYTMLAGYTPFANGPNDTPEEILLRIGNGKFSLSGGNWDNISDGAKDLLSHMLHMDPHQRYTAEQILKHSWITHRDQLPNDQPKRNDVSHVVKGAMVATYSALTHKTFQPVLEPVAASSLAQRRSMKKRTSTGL

Sample 1
SMILES: COc1cc(-c2cn(C3CCc4c(F)cccc4N(CC(F)(F)F)C3=O)nn2)ccc1-n1cnc(C)c1 (centres unmarked)
Method: competition with immobilised ligand
Tested at: 1 µM
Measurement: remaining binding
Tyrosine-protein kinase ABL1, non-phosphorylated (ABL1, Homo sapiens, UniProt P00519, F317I); binding: 79%
MUSK (Homo sapiens, UniProt O15146); cell-free assay: 100%
PLK4 (Homo sapiens, UniProt O00444); cell-free assay: 100%
Insulin receptor (INSR, Homo sapiens, UniProt P06213); cell-free assay: 90%
STK32B (Homo sapiens, UniProt Q9NY57); cell-free assay: 100%
CDK18 (Homo sapiens, UniProt Q07002); cell-free assay: 100%
ZAP70 (Homo sapiens, UniProt P43403); cell-free assay: 100%
CAMK1D (Homo sapiens, UniProt Q8IU85); cell-free assay: 100%
CSNK1G3 (Homo sapiens, UniProt Q9Y6M4); cell-free assay: 86%
PIP4K2C (Homo sapiens, UniProt Q8TBX8); cell-free assay: 100%
Ribosomal protein S6 kinase alpha-6, N-terminal kinase domain (RPS6KA6, Homo sapiens, UniProt Q9UK32); cell-free assay: 82%
PIK3CA (Homo sapiens, UniProt P42336, M1043I); cell-free assay: 100%
MAPK8 (Homo sapiens, UniProt P45983); cell-free assay: 52%
IKBKB (Homo sapiens, UniProt O14920); cell-free assay: 100%
COQ8A (Homo sapiens, UniProt Q8NI60); cell-free assay: 100%
MAK (Homo sapiens, UniProt P20794); cell-free assay: 100%
CAMK2G (Homo sapiens, UniProt Q13555); cell-free assay: 100%
MAPK1 (Homo sapiens, UniProt P28482); cell-free assay: 100%
KIT (Homo sapiens, UniProt P10721, V559D); cell-free assay: 100%

Sample 2
Compound: C=CC(=O)N1CCC([C@@H]2CCNc3c(C(N)=O)c(-c4ccc(Oc5ccccc5)cc4)nn32)CC1
Observed: enzyme activity
Mode: inhibitor
Tested at: 1 µM
Measurement: inhibition
STK25 (Homo sapiens, UniProt O00506): 8%
MAP3K15 (Homo sapiens, UniProt Q6ZN16): 10%
Tyrosine-protein kinase ABL1, non-phosphorylated (ABL1, Homo sapiens, UniProt P00519, F317L): 33%
MERTK (Homo sapiens, UniProt Q12866): 4%

Sample 3
Cell line: UACC-903 melanoma
Measurement: IC50
CN(C)CCCN1c2ccccc2CCc2ccccc21: 41 µM
CC(C)(C)c1ccc(C(O)CCCN2CCC(C(O)(c3ccccc3)c3ccccc3)CC2)cc1 (centres unmarked): 4.6 µM
CN(C)CCCN1c2ccccc2Sc2ccc(C(F)(F)F)cc21: 12.4 µM
OC1(c2ccc(Cl)c(C(F)(F)F)c2)CCN(CCCC(c2ccc(F)cc2)c2ccc(F)cc2)CC1: 4.6 µM

Sample 4
Structure (SMILES): CC(=O)N[C@@H](Cc1c[nH]c2ccccc12)C(=O)N[C@@H](CCC(=O)C=[N+]=[N-])C(=O)OC(C)C
Measurement: tumour volume
mouse, EL4 tumour; subcutaneous, 0.3 mg/kg, day 14: 177 mm3 and 31.1 mm3 and 97.7 mm3 and 874 mm3 and 296 mm3 and 531 mm3
mice, MC-38 tumour rechallenge; 1 mg/kg, day 71 after injection: 0 mm3
mouse, EL4 tumour; subcutaneous, 0.1 mg/kg, day 8: 499 mm3 and 680 mm3 and 546 mm3 and 682 mm3 and 489 mm3 and 1260 mm3

Sample 5
Cell line: HaCaT
Tested at: 100 µM
Time: 60 h
Measurement: viability
CC(C)(C)NCC(O)c1ccc(O)c(CO)c1 (centres unmarked): 152%
O=c1c(-c2ccc(O)cc2)coc2cc(O[C@@H]3O[C@H](CO)[C@@H](O)[C@H](O)[C@H]3O)ccc12: 39.6%
CC(=O)Oc1c(C)c(C)c2c(c1C)CCC(C)(CCC[C@H](C)CCC[C@H](C)CCCC(C)C)O2 (some centres unmarked): 137%

Sample 6
SMILES: c1ccc(Oc2ccc(Nc3c4c(nc5ccccc35)CCC4)cc2)cc1
Measurement: cytotoxicity
HEK293; resazurin; 6.66 µM, 10% serum: 56% and 43%
PMA-differentiated THP-1 macrophages; 8 µM, 64 h: 27% and 21%
J774.1; resazurin; 0.32 µM: 5% and 0%

Other studies, line by line
Observed: binding
C[C@H]1CC[C@H](n2c3cnccc3c3cnc(Nc4ccc5c(n4)CCN(C(=O)CO)C5)nc32)CC1 — remaining binding (Myosin-IIIa (MYO3A, Homo sapiens, UniProt Q8NEV4); 1 µM): 100%
C=C(F)C(=O)N1CCN(c2nc(OC[C@@H]3CCCN3C)nc3c2CCN(c2cccc4cccc(Cl)c24)C3)C[C@@H]1CC#N — normalized BRET (GTPase HRas (HRAS, Homo sapiens, UniProt P01112); competitor, NanoBRET; HEK293; 156 nM): 90.9%

Repeated from above (sample 6):
HEK293; resazurin; 6.66 µM, 10% serum: 56% and 43%
PMA-differentiated THP-1 macrophages; 8 µM, 64 h: 27% and 21%
J774.1; resazurin; 0.32 µM: 5% and 0%
